# Published values collected from several papers.
# Numbered parts are unrelated; each lists some results of a single study.

# Study 1 — method: aptamer microarray, sandwich; form: DNA with 2'F-ANA; matrix: in vitro; tested at: 200 nM; together with: Cy3 exosite-II aptamer, 400 nM; reading: higher = stronger binding; sequence: GGTTGGTGTGGTTGG
# Target: Prothrombin, mature alpha-thrombin (F2, Homo sapiens, UniProt P00734)
# Setting: whole 15-mer aptamer, many near background
Modification,mean fluorescence intensity
2'F-ANA at 2 3 4 6 9 10 13 14 15,156 a.u.
2'F-ANA at 6 9,414 a.u.
2'F-ANA at 1 2 3 4 5 7 10 12 13 15,47.2 a.u.
2'F-ANA at 2 4 5 8 9 10 12 13,46.5 a.u.
2'F-ANA at 1 2 8 11 12 15,316 a.u.
2'F-ANA at 1 7 8 10 12,74.1 a.u.
2'F-ANA at 1 3 5 6 9 10 13 14,49.9 a.u.
2'F-ANA at 4 9 10 12 13 14 15,63.6 a.u.

# Study 2 — method: Sort-seq; item: YFP reporter; matrix: E. coli; setting: PhoQ-PhoP variant library; together with: 10 µM Mg2+; baseline: high Mg2+ state; reading: higher = stronger signaling
# Substance: PhoQ, residues 284 288 289 292 302 303 SASVAL
target,fold induction
"PhoP, residues 12 14 15 18 19 TQAML (Escherichia coli, UniProt P23836)",1.21
"PhoP, residues 12 14 15 18 19 NQCAL (Escherichia coli, UniProt P23836)",6.45
"PhoP, residues 12 14 15 18 19 LHTVL (Escherichia coli, UniProt P23836)",9.56

# Study 3 — method: protein-binding microarray; form: double-stranded DNA, one strand shown; matrix: in vitro; tested at: 0.8 µM; setting: whole 60-bp probe, no competitor; reading: higher = stronger binding; shared flanks, not repeated: … GTCTTGATTCGCTTGACGCTGCTG
# Target: Centromere-binding protein 1, full length, N-terminal tag (CBF1, Saccharomyces cerevisiae, UniProt P17106, residues 1-351)
# Chain of UniProt P17106 (whole entry, looked up): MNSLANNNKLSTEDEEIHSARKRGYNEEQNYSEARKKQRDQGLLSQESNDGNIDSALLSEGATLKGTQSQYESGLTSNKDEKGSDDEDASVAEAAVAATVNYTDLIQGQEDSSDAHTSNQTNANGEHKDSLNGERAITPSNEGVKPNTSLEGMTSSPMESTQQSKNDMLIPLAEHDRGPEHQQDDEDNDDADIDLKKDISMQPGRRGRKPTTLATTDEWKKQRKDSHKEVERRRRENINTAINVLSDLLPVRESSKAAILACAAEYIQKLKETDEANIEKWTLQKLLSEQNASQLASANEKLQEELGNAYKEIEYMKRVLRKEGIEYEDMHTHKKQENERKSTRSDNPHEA
Sequence,fluorescence intensity [a.u.]
TGTACGAAGCTATATCAGATGTGTATAGTAGTTAGG,549
GAATTTTTATATACACGTGTGGCTCAAGCAAACTAG,4650
CTAGCGAGTATTCATCACCTAAGCGTCCTGTAGTTC,526
CTATCCTTTCTCTTCTACGTCACAGTACATCTCTTC,673
GAACTTTATATGGATCGCGTGATGTTTTAAGCCTAG,2080
TGTACGAAGCTATTACACGTTTGTATAGTAGTTAGG,545

# Study 4 — method: universal PBM; form: double-stranded DNA, one strand shown; matrix: in vitro; tested at: 600 nM; reading: higher = stronger binding
# Target: Sal-like protein 4, full length isoform A (SALL4, Homo sapiens, UniProt Q9UJQ4, residues 1-1053)
# Chain of UniProt Q9UJQ4 (whole entry, looked up): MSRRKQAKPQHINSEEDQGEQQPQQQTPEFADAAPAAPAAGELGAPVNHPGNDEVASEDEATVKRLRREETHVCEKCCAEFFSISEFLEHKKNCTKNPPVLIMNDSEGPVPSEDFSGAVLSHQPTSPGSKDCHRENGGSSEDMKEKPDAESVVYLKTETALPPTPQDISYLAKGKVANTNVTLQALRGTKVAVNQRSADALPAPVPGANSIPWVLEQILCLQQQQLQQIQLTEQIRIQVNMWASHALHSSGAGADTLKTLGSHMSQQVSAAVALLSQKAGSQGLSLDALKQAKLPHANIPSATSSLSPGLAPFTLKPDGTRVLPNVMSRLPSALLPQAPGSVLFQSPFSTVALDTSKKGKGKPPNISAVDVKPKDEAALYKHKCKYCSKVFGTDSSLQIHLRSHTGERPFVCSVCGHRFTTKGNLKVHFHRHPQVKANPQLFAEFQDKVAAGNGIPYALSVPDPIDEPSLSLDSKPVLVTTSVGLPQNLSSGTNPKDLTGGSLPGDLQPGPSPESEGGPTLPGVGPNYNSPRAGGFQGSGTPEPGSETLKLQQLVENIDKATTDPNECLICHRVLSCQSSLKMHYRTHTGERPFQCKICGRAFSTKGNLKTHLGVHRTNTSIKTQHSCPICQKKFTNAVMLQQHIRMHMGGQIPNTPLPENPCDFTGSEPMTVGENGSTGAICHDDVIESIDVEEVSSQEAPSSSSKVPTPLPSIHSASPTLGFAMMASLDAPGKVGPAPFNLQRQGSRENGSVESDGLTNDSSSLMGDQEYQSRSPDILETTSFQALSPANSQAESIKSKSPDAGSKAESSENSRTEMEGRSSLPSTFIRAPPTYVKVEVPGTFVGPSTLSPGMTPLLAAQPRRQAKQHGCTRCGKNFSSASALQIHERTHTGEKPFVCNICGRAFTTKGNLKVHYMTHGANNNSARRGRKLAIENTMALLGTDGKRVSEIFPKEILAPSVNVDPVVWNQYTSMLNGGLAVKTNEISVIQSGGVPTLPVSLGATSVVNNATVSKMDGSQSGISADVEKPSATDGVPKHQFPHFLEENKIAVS
# Setting: 8-mer, flanks averaged, mean of replicates
Sequence,E-score
GAAGGCGC,-0.237
AACCCTTC,0.149
CAGAGATA,0.234
ACGTCGGG,-0.358
AGAGAAGG,-0.124
CCCATGCC,-0.339
CACGCACC,-0.334
CGTAAGTC,0.0407
